Published values collected from several papers.
Protocols differ between the studies behind these lines. Numbers after ± are the reported error.
rep main protease: Replicase polyprotein 1ab, main protease (rep, Severe acute respiratory syndrome coronavirus 2, UniProt P0DTD1)
rep nsp14 N7-methyltransferase: Replicase polyprotein 1ab, nsp14 N7-methyltransferase (rep, Severe acute respiratory syndrome coronavirus 2, UniProt P0DTD1)

`CC[C@H](C)[C@H](NC(=O)[C@H](CC(C)C)NC(=O)[C@H](Cc1c[nH]c2ccccc12)NC(=O)[C@H](CCC(N)=O)NC(=O)[C@@H](NC(=O)[C@H](Cc1ccccc1)NC(=O)[C@H](C)NC(=O)[C@H](CCCCNC(=O)COCCOCCNC(=O)COCCOCCNC(=O)CC[C@H](NC(=O)CCCCCCCCCCCCCCCCCCC(=O)O)C(=O)O)NC(=O)[C@H](CCC(N)=O)NC(=O)[C@H](C)NC(=O)[C@@H](NC(=O)[C@H](CCCCN)NC(=O)[C@H](CC(=O)O)NC(=O)[C@H](CC(C)C)NC(=O)C(C)(C)NC(=O)[C@@H](NC(=O)[C@H](CO)NC(=O)[C@H](Cc1ccc(O)cc1)NC(=O)[C@H](CC(=O)O)NC(=O)[C@H](CO)NC(=O)[C@@H](NC(=O)[C@H](Cc1ccccc1)NC(=O)[C@@H](NC(=O)CNC(=O)[C@H](CCC(=O)O)NC(=O)C(C)(C)NC(=O)[C@@H](N)Cc1ccc(O)cc1)[C@@H](C)O)[C@@H](C)O)[C@@H](C)CC)[C@@H](C)CC)C(C)C)C(=O)N[C@@H](C)C(=O)NCC(=O)NCC(=O)N1CCC[C@H]1C(=O)N[C@@H](CO)C(=O)N[C@@H](CO)C(=O)NCC(=O)N[C@@H](C)C(=O)N1CCC[C@H]1C(=O)N1CCC[C@H]1C(=O)N1CCC[C@H]1C(=O)N[C@@H](CO)C(N)=O` has a lipase of 39.8 ± 17.3 U/L (patients with type 2 diabetes, serum; 5 mg, baseline, proof of concept study).
Under helicase inhibition, `ivermectin` is recorded as “no inhibition” (Replicase polyprotein 1ab, nsp13 helicase (rep, Severe acute respiratory syndrome coronavirus 2, UniProt P0DTD1); DNA unwinding, inhibitor, MBHA; concentration not given).
For `Cc1[nH]cnc1C(=O)NC[C@H](NC(=O)c1c(Cl)ccnc1F)c1ccc2ccccc2c1`, the inhibition was 13.3% (rep main protease; enzyme activity, inhibitor; 5 µM, run 1).
For `O=C(Nc1ccccc1C(=O)NC1CCCCNC1=O)c1cc2ccccc2s1` (stereo not drawn), the Hill slope was 1.45 ± 0.68 (rep nsp14 N7-methyltransferase; N7-methyltransferase activity, inhibitor, Py-FLINT).
With `Cc1cc(N[C@H]2C[C@H]3CC[C@@H]2N(C(=O)c2cnc4[nH]ccc4c2)C3)nc(-c2cccnc2)n1` the inhibition was 12.1% (rep main protease; enzyme activity, inhibitor; 5 µM, mean of runs).
`CCn1c(-c2nonc2N)nc2c(C#CC(C)(C)O)ncc(OC[C@H]3CCCNC3)c21` gave an inhibition of -1.25% (rep main protease; reporter gene (Gaussia luciferase), inhibitor; 20 µM).
`Nc1ncnc2c([C@@H]3N[C@H](CO)[C@@H](O)[C@H]3O)c[nH]c12` has an antigen-positive cells of 0.03% (Zaire ebolavirus; antibody staining; HeLa, Kikwit; 100 µM).
`CCC(C(=O)Nc1cc(NC2CNC2)ccc1C)n1cc(Br)cc2nc(SCc3ccc(F)cc3)nc1-2` (stereo not drawn) gave a koff of 0.075 s⁻¹ (Replicase polyprotein 1ab, papain-like protease (rep, Severe acute respiratory syndrome coronavirus 2, UniProt P0DTD1); binding).
With `[H]/N=C(\N/C(=N/[H])NCCCCCCNC(=N)NC(=N)Nc1ccc(Cl)cc1)Nc1ccc(Cl)cc1` the Hill slope was 3.37 ± 0.12 (rep nsp14 N7-methyltransferase; N7-methyltransferase activity, inhibitor, Py-FLINT).
`O=C(NC[C@H](NC(=O)c1cncc2ccccc12)c1ccc2ccccc2c1)C1=COCC1` gave an inhibition of 14.1% (rep main protease; enzyme activity, inhibitor; 5 µM, run 2).
`O=C(O)/C=C/c1ccc(Cn2ccnc2)cc1` gave an inhibition of -0.922% (rep main protease; reporter gene (mKate2), inhibitor; 20 µM).
`CC(C)C1CC(c2ccc(C(=O)O)cc2)=NN1c1ccc(C#N)c(Cl)c1.N` (stereo not drawn) — result for “lipophilic ligand efficiency”: 1.6 (Replicase polyprotein 1ab, nsp14 methyltransferase (rep, Severe acute respiratory syndrome coronavirus 2, UniProt P0DTD1)).
`CC(C)(Oc1ccc(C(=O)c2ccc(Cl)cc2)cc1)C(=O)O` has an inhibition of 0.543% (rep main protease; reporter gene (Gaussia luciferase), inhibitor; 20 µM).
`Cc1cnc(F)c(C(=O)NC[C@@H]2c3ccccc3CCN2C(=O)c2cccc3[nH]ccc23)c1` gave an inhibition of 10.9% (rep main protease; enzyme activity, inhibitor; 5 µM, run 1).
With `O=C(O)CC[C@H]1CC[C@@](c2cc(F)ccc2F)(S(=O)(=O)c2ccc(Cl)cc2)CC1` the inhibition was 0.338% (rep main protease; reporter gene (Gaussia luciferase), inhibitor; 20 µM).
`Oc1cc(O)cc(/C=C/c2ccc(O)c(O)c2)c1` gave a Hill slope of 1.42 ± 0.14 (rep nsp14 N7-methyltransferase; N7-methyltransferase activity, inhibitor, Py-FLINT).
`C=Cc1cc(O)cc2ccc3c(C)c(O)ccc3c12` has an inhibition of -1.15% (rep main protease; reporter gene (mKate2), inhibitor; 20 µM).
With `Cc1ccccc1C1(C(=O)NC[C@H](NC(=O)Cn2cncn2)c2ccc3ccccc3c2)CC1` the inhibition was 14.9% (rep main protease; enzyme activity, inhibitor; 5 µM, run 2).

Excerpt of the above:
`O=C(NC[C@H](NC(=O)c1cncc2ccccc12)c1ccc2ccccc2c1)C1=COCC1` gave an inhibition of 14.1% (rep main protease; enzyme activity, inhibitor; 5 µM, run 2).
`C=Cc1cc(O)cc2ccc3c(C)c(O)ccc3c12` has an inhibition of -1.15% (rep main protease; reporter gene (mKate2), inhibitor; 20 µM).
With `Cc1ccccc1C1(C(=O)NC[C@H](NC(=O)Cn2cncn2)c2ccc3ccccc3c2)CC1` the inhibition was 14.9% (rep main protease; enzyme activity, inhibitor; 5 µM, run 2).
